Results of several laboratories.
Compare with care: the assays were run in different laboratories.

| Structure (SMILES) | assay | system | conditions | endpoint | value |
| --- | --- | --- | --- | --- | --- |
| CN1CC[C@@H](c2c(O)cc(O)c3c(=O)cc(-c4ccc(C(F)(F)F)cc4Cl)oc23)[C@@H]1CO | refers to: Epistaxis | relapsed B-cell malignancies | oral, 100 mg, grade 3-4, intermittent dosing | patients with adverse event | 0% |
| Cc1cc(OCCOCCC(F)(F)P(=O)(O)O)ccc1CCc1cnc2c(N)nc3cc(CCC(=O)O)ccc3c2c1 | refers to: vomiting | adults with advanced solid tumours | dose not given, all groups pooled, all grades | patients with non-serious AE | 13.3% |
| C[C@@H]1OC(=O)NN=C1c1ccc(-c2ccc(F)cc2)c(C(F)(F)F)c1 |  | patients, phase I trial | oral, 5 mg once daily, worst grade 1 | patients with AST increased | 0% |
| C=CCNc1c(O)cc2c(O)c1C[C@@H](C)C[C@H](OC)[C@H](O)[C@@H](C)/C=C(\C)[C@H](OC(N)=O)[C@@H](OC)/C=C\C=C(/C)C(=O)N2 |  | unresectable or metastatic sarcoma | intravenous, 400 mg/m^2, grade 3-4 lab change | patients with AST increase | 16% |
| O=C1Nc2cc3[nH]nc(-c4ccncc4)c3cc2CN1Cc1ccccc1 | refers to: Rash | patients with advanced solid tumours | intravenous, dose not given, schedules 1 and 2 | patients with grade ≥3 TEAE | 6% |
| CO[C@H]1C[C@@H]2CC[C@@H](C)[C@@](O)(O2)C(=O)C(=O)N2CCCC[C@H]2C(=O)O[C@H]([C@H](C)C[C@@H]2CC[C@@H](OC(=O)NCCOCCOCCOCCOCCOCCOCCOCCOCCC(=O)N3CCc4cc(Cn5nc(-c6ccc7oc(N)nc7c6)c6c(N)ncnc65)ccc4C3)[C@H](OC)C2)C[C@@H](O)[C@H](C)/C=C(\C)[C@@H](O)[C@@H](OC)C(=O)[C@H](C)C[C@H](C)/C=C/C=C/C=C/1C | refers to: treatment-related decreased appetite | patients with advanced solid tumours | intravenous, 1.6 mg/3 mg, grade ≥3, weekly | patients with AE | 0% |
| CC(=O)c1c(C)c2cnc(Nc3ccc(C4CCN(CCS(C)(=O)=O)CC4)cn3)nc2n(C2CCCC2)c1=O |  | HR+/HER2- advanced breast cancer patients | oral, dose not given, all grades, dose escalation, sample B patients | patients with AST increased | 26.3% |
| CCN(CCO)CCCC(C)Nc1ccnc2cc(Cl)ccc12 (centres unmarked) | refers to: Diarrhea grade 1 | newly diagnosed glioblastoma patients | oral, 400 mg/dose, with radiotherapy and temozolomide | patients with adverse event | 29% |
| N[C@@H]1c2ccccc2OC12CCN(c1cnc3c(N4CCCc5ncccc54)n[nH]c3n1)CC2 |  | advanced solid tumour patients | oral, 10 mg once daily | patients with any TEAE | 100% |
| COc1c(OCCCN2CCOCC2)ccc2c1N=C(NC(=O)c1cnc(N)nc1)N1CCN=C21 | refers to: other investigations, any grade | patients with advanced malignancies | intravenous, dose not given, all cohorts, with: gemcitabine | patients with adverse events | 30% |
| Nc1nc2cc(-c3ccc4ncc(C(=O)N5CCOCC5)n4c3)ccc2o1 | refers to: Fatigue | advanced solid tumour patients | dose not given, all grades, all doses | patients with adverse event | 48% |
